Assay results of several laboratories.
Protocols differ between the studies behind these lines.
Organism: Escherichia coli

With CC(C)(C)Oc1ccc(CC2NC(=O)C(C(=O)NC(C(=O)NC3C(=O)N4C3SC(C)(C)C4C(=O)O)c3ccccc3)=C2O)cc1 (stereo not drawn) the MIC was 25 µg/mL (broth microdilution; JW0790-2 fiu deletion mutant; ferric iron uptake gene).
CC[C@H](C)[C@H](NC(=O)[C@H](CCCCN)NC(=O)[C@H](CC(=O)O)NC(=O)[C@H](CC(C)C)NC(=O)[C@@H](NC(=O)[C@H](CC(N)=O)NC(=O)[C@H](CC(C)C)NC(=O)[C@@H](NC(=O)[C@H](Cc1ccccc1)NC(=O)[C@H](CCCCN)NC(=O)[C@H](CCCCN)NC(=O)CNC(=O)[C@H](C)NC(=O)[C@H](CC(N)=O)NC(=O)[C@H](CCCCN)NC(=O)[C@H](Cc1ccccc1)NC(=O)[C@H](CC(N)=O)NC(=O)[C@H](CCC(=O)O)NC(=O)[C@H](Cc1c[nH]c2ccccc12)NC(=O)[C@H](CC(C)C)NC(=O)[C@@H](N)CO)[C@@H](C)CC)[C@@H](C)CC)C(=O)N[C@@H](CCCNC(=N)N)C(N)=O gave an MIC of 32 µM (ATCC 8739; overnight, 37 °C, 10 % fetal bovine serum).
CC(C)C[C@H](NC(=O)[C@@H](NC(=O)[C@H](CCCNC(=N)N)NC(=O)[C@H](CCC(N)=O)NC(=O)[C@H](Cc1ccccc1)NC(=O)[C@H](Cc1ccc(O)cc1)NC(=O)[C@H](CC(N)=O)NC(=O)[C@H](Cc1c[nH]c2ccccc12)NC(=O)[C@@H](NC(=O)[C@H](CCCNC(=N)N)NC(=O)[C@H](CCCCN)NC(=O)[C@@H](N)Cc1ccccc1)C(C)C)C(C)C)C(=O)N[C@H](C(=O)N[C@@H](CCCCN)C(=O)N[C@@H](CCCCN)C(=O)N[C@@H](Cc1ccc(O)cc1)C(=O)N[C@@H](C)C(N)=O)C(C)C has an MIC of 50 µM (broth dilution; ATCC 25922, Mueller-Hinton broth; 24 h, 37 °C).
For C[C@@H](O)[C@H]1C(=O)N2C(C(=O)O)=C(S[C@@H]3CN[C@H](C(=O)N(C)C)C3)[C@H](C)[C@H]12, the MIC was 8 µg/mL (broth microdilution; DH5α pET28-lacUV5-VIM-2; VIM-2-producing, compound alone).
CC[C@H](C)[C@H](NC(=O)CN)C(=O)NCC(=O)N[C@@H](C)C(=O)N[C@H](C(=O)N[C@@H](CC(C)C)C(=O)N[C@@H](CCCCN)C(=O)N[C@H](C(=O)N[C@@H](CC(C)C)C(=O)N[C@H](C(=O)N[C@H](C(=O)NCC(=O)N[C@@H](CC(C)C)C(=O)N1CCC[C@H]1C(=O)N[C@@H](C)C(=O)N[C@@H](CC(C)C)C(=O)N[C@H](C(=O)N[C@@H](CO)C(=O)N[C@@H](Cc1c[nH]c2ccccc12)C(=O)N[C@H](C(=O)N[C@@H](CCCCN)C(=O)N[C@@H](CCCNC(=N)N)C(=O)N[C@@H](CCCCN)C(=O)N[C@@H](CCCNC(=N)N)C(=O)N[C@@H](CCC(N)=O)C(=O)N[C@@H](CCC(N)=O)C(N)=O)[C@@H](C)CC)[C@@H](C)CC)[C@@H](C)O)[C@@H](C)O)C(C)C)C(C)C has an MIC of 8 µM (NCCP 16044 carbapenem-resistant).
For Cc1ccc2[nH]c3c(c2c1)CCCC3NCCc1ccc(Br)cc1 (stereo not drawn), the MIC was 4 µg/mL (broth microdilution; MB5746 efflux-deficient hyperpermeable).
With COc1c(N2C[C@@H]3CCCN[C@@H]3C2)c(F)cc2c(=O)c(C(=O)O)cn(C3CC3)c12 the MIC was 73 µM (NR 48983, fluoroquinolone-resistant).
The MIC of CC[C@H](C)[C@H](NC(=O)CNC(=O)[C@H](CC(=O)O)NC(=O)[C@H](CCCNC(=N)N)NC(=O)[C@@H](NC(=O)[C@H](CC(N)=O)NC(=O)[C@H](CCCNC(=N)N)NC(=O)CNC(=O)[C@@H](NC(=O)[C@H](CCCCN)NC(=O)[C@H](CCC(=O)O)NC(=O)[C@@H](NC(=O)[C@H](CCCCN)NC(=O)[C@H](CCCCN)NC(=O)[C@H](Cc1ccccc1)NC(=O)[C@@H](NC(=O)[C@H](CCCCN)NC(=O)[C@H](Cc1c[nH]c2ccccc12)NC(=O)[C@@H](N)CCCNC(=N)N)[C@@H](C)CC)[C@@H](C)CC)C(C)C)C(C)C)C(=O)N[C@H](C(=O)N[C@@H](CCCCN)C(=O)N[C@@H](C)C(=O)NCC(=O)N1CCC[C@H]1C(=O)N[C@@H](C)C(=O)N[C@H](C(=O)N[C@@H](C)C(=O)N[C@H](C(=O)N[C@H](C(=O)NCC(=O)N[C@@H](CCC(N)=O)C(=O)N[C@@H](C)C(=O)N[C@@H](C)C(=O)N[C@H](C(=O)N[C@H](C(=O)N[C@H](C(=O)N[C@@H](CCCCN)C(N)=O)C(C)C)C(C)C)[C@@H](C)O)C(C)C)C(C)C)C(C)C)[C@@H](C)CC is reported as 1 µM (K1 ATCC 700973, Mueller-Hinton broth; 16 h, 37 °C; growth inhibition over 99%).
O=C(O)c1cccc(C(=O)O)n1 gave an MIC of 0.25 µg/mL (NDM-1 producer; 32 µg/mL, MIC of meropenem, with: meropenem).
O=[N+]([O-])[O-].O=[N+]([O-])[O-].O=[N+]([O-])[O-].[Ga+3] gave an MIC of 128 µg/mL (broth dilution; DH5α; 22 to 24 h, 37 °C).
CC[C@H](C)[C@H](NC(=O)[C@H](CCCNC(=N)N)NC(=O)[C@H](CCCNC(=N)N)NC(=O)[C@H](CCCNC(=N)N)NC(=O)[C@H](CCCNC(=N)N)NC(=O)[C@H](CCCNC(=N)N)NC(=O)[C@@H](N)CCCNC(=N)N)C(=O)N[C@@H](CO)C(=O)N[C@@H](Cc1ccccc1)C(=O)N[C@@H](CC(C)C)C(=O)NCC(=O)N[C@@H](CO)C(=O)N[C@@H](CCCCN)C(=O)N[C@@H](CCCCN)C(=O)N[C@@H](CCCCN)C(=O)N[C@@H](CCCCN)C(=O)N[C@@H](CCCCN)C(=O)N[C@@H](CC(C)C)C(=O)N[C@@H](CC(C)C)C(=O)N[C@@H](CCCCN)C(=O)N[C@@H](CCCNC(=N)N)C(N)=O gave an MIC of 32 µM (checkerboard; 24 h, 37 °C, alone, azithromycin plate).
With CC1(C)CC[C@]2(C(=O)O)CC[C@]3(C)C(=CC[C@@H]4[C@@]5(C)CC[C@H](O)C(C)(C)[C@@H]5CC[C@]43C)[C@@H]2C1 the MIC was 512 µg/mL (E2, NDM-9/OXA-10).
With C[C@@H](O)[C@H]1C(=O)N2C(C(=O)O)=C(S[C@@H]3CN[C@H](C(=O)N(C)C)C3)[C@H](C)[C@H]12 the MIC was under 0.09 µg/mL (BL21(DE3) carrying Ftu-1).
For CC(C)C[C@@H](NC(=O)CNC(=O)[C@@H](CCCCN)NC(=O)[C@@H](CC(C)C)NC(=O)[C@@H](CCCCN)NC(=O)[C@@H](CCCNC(=N)N)NC(=O)[C@@H](CC(C)C)NC(=O)[C@@H](CC(C)C)NC(=O)[C@@H](CCCNC(=N)N)NC(=O)[C@H](N)CCCNC(=N)N)C(=O)N[C@H](CCCCN)C(=O)N[C@H](CCCCN)C(=O)N[C@H](Cc1ccc(O)cc1)C(=O)N[C@H](CC(C)C)C(=O)N[C@H](Cc1ccc(O)cc1)C(=O)N[C@H](Cc1ccccc1)C(=O)N[C@H](CCCCN)C(=O)N[C@H](CC(C)C)C(=O)N[C@H](CCC(N)=O)C(=O)N[C@H](CC(C)C)C(=O)N[C@H](CC(C)C)C(=O)N[C@H](CCCCN)C(=O)N[C@H](CCCCN)C(N)=O, the MIC was 16 µM (broth microdilution; KCTC 1682, Mueller-Hinton broth; with: FeCl3 4 µM).
C[C@@H](O)[C@H]1C(=O)N2C(C(=O)O)=C(SCCN=CN)C[C@H]12 has an MIC of 1 µg/mL (DH5α cloned blaKPC-144).
CC[C@H](C)[C@H](NC(=O)[C@H](Cc1ccc(O)cc1)NC(=O)[C@@H](NC(=O)[C@@H]1CCCN1C(=O)[C@H](CCCNC(=N)N)NC(=O)[C@H](CC(N)=O)NC(=O)[C@H](CC(N)=O)NC(=O)CN)C(C)C)C(=O)N1CCC[C@H]1C(=O)N[C@@H](CCC(N)=O)C(=O)N1CCC[C@H]1C(=O)N[C@@H](CCCNC(=N)N)C(=O)N1CCC[C@H]1C(=O)N1CCC[C@H]1C(=O)N[C@@H](Cc1c[nH]cn1)C(=O)N1CCC[C@H]1C(=O)N[C@@H](CCCNC(=N)N)C(=O)N[C@@H](CC(C)C)C(=O)O has an MIC of 9.4 µM (broth dilution; K12 BW25113; 18 h, 37 °C).
N=C(N)NCCC[C@H](NC(=O)CCCCCNC(=O)[C@H](CCCNC(=N)N)NC(=O)[C@H](CCCNC(=N)N)NC(=O)CCCCCNC(=O)[C@H](CCCNC(=N)N)NC(=O)[C@H](CCCNC(=N)N)NC(=O)CCCCCNC(=O)[C@H](CCCNC(=N)N)NC(=O)[C@H](CCCNC(=N)N)NC(=O)CCCCCNC(=O)[C@@H](N)CCCNC(=N)N)C(=O)NCCCCCC(=O)NCCC(=O)O has an MIC of over 192 µM (ATCC 25922; 1 h, 37 °C, after 50% human serum).
With CC[C@H](C)[C@H](NC(=O)[C@H](CC(C)C)NC(=O)[C@@H]1CCCN1C(=O)[C@H](CC(C)C)NC(=O)[C@H](C)NC(=O)[C@H](CCCCN)NC(=O)[C@@H](NC(=O)[C@@H](NC(=O)[C@@H](NC(=O)[C@H](CCCCN)NC(=O)CNC(=O)[C@@H](NC(=O)[C@H](CCCCN)NC(=O)[C@H](CCCCN)NC(=O)CNC(=O)[C@@H](NC(=O)[C@H](CCC(=O)O)NC(=O)[C@H](CCC(=O)O)NC(=O)[C@H](CC(C)C)NC(=O)[C@H](CCCNC(=N)N)NC(=O)[C@H](CCCCN)NC(=O)CNC(=O)[C@H](Cc1ccccc1)NC(=O)[C@H](CC(N)=O)NC(=O)[C@H](CCCNC(=N)N)NC(=O)[C@H](CC(C)C)NC(=O)CNC(=O)[C@@H](N)CCC(=O)O)C(C)C)C(C)C)C(C)C)[C@@H](C)O)[C@@H](C)CC)C(=O)N[C@@H](C)C(=O)NCC(=O)N[C@@H](Cc1ccc(O)cc1)C(=O)N[C@@H](C)C(=O)N[C@@H](CO)C(=O)O the MIC was 4.96 µM (broth microdilution; K88, Mueller-Hinton broth; 37 °C).
With CC[C@H](C)[C@H](NC(=O)CN)C(=O)N[C@@H](CC(C)C)C(=O)N[C@@H](C)C(=O)N[C@@H](C)C(=O)N[C@H](C(=O)N[C@@H](CCCCN)C(=O)N[C@@H](C)C(=O)N[C@H](C(=O)N[C@@H](C)C(=O)N[C@@H](CCCCN)C(=O)N[C@@H](C)C(=O)N[C@@H](C)C(=O)NCC(N)=O)[C@@H](C)CC)[C@@H](C)CC the MIC was 64 µg/mL (ATCC 25922, Mueller-Hinton broth; 12 h, 37 °C).
CC1(C)SC2C(NC(=O)C(NC(=O)C3=C(O)C(Cc4ccccc4)NC3=O)c3ccccc3)C(=O)N2C1C(=O)O (stereo not drawn) has an MIC of 25 µg/mL (broth microdilution; Keio mutant JW5195-1; 18 h).
The MIC of CN1C(=O)Cc2ccc(F)c(CCNCC[C@H]3CN(c4ccc5c(n4)NC(=O)CO5)C(=O)O3)c21 is reported as 0.06 µg/mL (ATCC 25922).

A few entries again:
The MIC of CC[C@H](C)[C@H](NC(=O)CNC(=O)[C@H](CC(=O)O)NC(=O)[C@H](CCCNC(=N)N)NC(=O)[C@@H](NC(=O)[C@H](CC(N)=O)NC(=O)[C@H](CCCNC(=N)N)NC(=O)CNC(=O)[C@@H](NC(=O)[C@H](CCCCN)NC(=O)[C@H](CCC(=O)O)NC(=O)[C@@H](NC(=O)[C@H](CCCCN)NC(=O)[C@H](CCCCN)NC(=O)[C@H](Cc1ccccc1)NC(=O)[C@@H](NC(=O)[C@H](CCCCN)NC(=O)[C@H](Cc1c[nH]c2ccccc12)NC(=O)[C@@H](N)CCCNC(=N)N)[C@@H](C)CC)[C@@H](C)CC)C(C)C)C(C)C)C(=O)N[C@H](C(=O)N[C@@H](CCCCN)C(=O)N[C@@H](C)C(=O)NCC(=O)N1CCC[C@H]1C(=O)N[C@@H](C)C(=O)N[C@H](C(=O)N[C@@H](C)C(=O)N[C@H](C(=O)N[C@H](C(=O)NCC(=O)N[C@@H](CCC(N)=O)C(=O)N[C@@H](C)C(=O)N[C@@H](C)C(=O)N[C@H](C(=O)N[C@H](C(=O)N[C@H](C(=O)N[C@@H](CCCCN)C(N)=O)C(C)C)C(C)C)[C@@H](C)O)C(C)C)C(C)C)C(C)C)[C@@H](C)CC is reported as 1 µM (K1 ATCC 700973, Mueller-Hinton broth; 16 h, 37 °C; growth inhibition over 99%).
O=C(O)c1cccc(C(=O)O)n1 gave an MIC of 0.25 µg/mL (NDM-1 producer; 32 µg/mL, MIC of meropenem, with: meropenem).
